# Published values gathered from unrelated publications.
# Numbered parts are unrelated; each lists some results of a single study. Changes are numbered by the printed parent chain.

# Block 1
# Target: CCND3, cyclin fold, Cln2 fusion (human)
# Technique: yeast growth competition, sequencing
# Sample: yeast
# Notes: weak parent motif
# Relative to: not given
# Reading: higher = stronger binding
# Starting sequence: E2F1 docking peptide (human); PPVKRRLDLETDH; partner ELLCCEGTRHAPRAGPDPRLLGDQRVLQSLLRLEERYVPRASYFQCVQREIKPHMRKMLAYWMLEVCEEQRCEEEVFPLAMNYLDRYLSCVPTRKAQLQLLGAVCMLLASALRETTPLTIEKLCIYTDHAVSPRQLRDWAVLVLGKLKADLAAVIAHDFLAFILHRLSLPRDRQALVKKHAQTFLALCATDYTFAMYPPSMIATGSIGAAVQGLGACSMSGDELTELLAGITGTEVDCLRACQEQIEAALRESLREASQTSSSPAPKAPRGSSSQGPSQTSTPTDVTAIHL
Variant,normalised enrichment score
V3Q,0.143
K4A,0.194
D12I,0.0955
P2E,0.138
H13L,0.133
D12F,0.261
L7F,0.0197
D8V,0.106
D8I,0.144

# Block 2
# Substance: PhoQ, residues 284 288 289 292 302 303 TTSMTC
# Technique: Sort-seq
# Refers to: YFP reporter
# Sample: E. coli
# Notes: PhoQ-PhoP variant library
# Together with: 10 µM Mg2+
# Relative to: high Mg2+ state
# Reading: higher = stronger signaling
target,fold induction
"PhoP, residues 12 14 15 18 19 LHHYF (Escherichia coli, UniProt P23836)",9.57
"PhoP, residues 12 14 15 18 19 TPWTL (Escherichia coli, UniProt P23836)",7.75
"PhoP, residues 12 14 15 18 19 VGHWL (Escherichia coli, UniProt P23836)",2.89
"PhoP, residues 12 14 15 18 19 NFFVT (Escherichia coli, UniProt P23836)",8.45

# Block 3
# Target: ABI1, truncated, D143A, DHFR fusion (Arabidopsis thaliana)
# Technique: DHFR PCA, deep sequencing
# Sample: yeast
# Notes: methotrexate growth selection, single substitutions
# Together with: (+)-ABA 0 µM
# Relative to: wild-type fitted maximum
# Reading: higher = stronger binding
# Starting sequence: PYL1, truncated, DHFR fusion (Arabidopsis thaliana); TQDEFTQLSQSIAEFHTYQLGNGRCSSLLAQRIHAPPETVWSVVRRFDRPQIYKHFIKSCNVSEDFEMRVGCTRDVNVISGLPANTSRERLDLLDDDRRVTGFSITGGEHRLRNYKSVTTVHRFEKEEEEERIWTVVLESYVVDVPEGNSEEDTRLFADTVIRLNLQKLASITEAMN; partner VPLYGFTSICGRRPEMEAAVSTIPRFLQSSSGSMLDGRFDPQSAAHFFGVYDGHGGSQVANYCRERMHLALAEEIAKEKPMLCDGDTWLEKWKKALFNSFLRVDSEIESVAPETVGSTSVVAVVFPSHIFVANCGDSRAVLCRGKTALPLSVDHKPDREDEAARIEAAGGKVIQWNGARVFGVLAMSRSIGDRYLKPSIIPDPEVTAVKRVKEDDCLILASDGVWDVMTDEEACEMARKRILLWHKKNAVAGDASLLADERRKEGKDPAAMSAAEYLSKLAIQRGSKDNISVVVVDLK
Variant,relative binding score [%]
D95I,-5.9
G21P,7.73
D92H,-8.74
R49P,3.44
G71Q,-1.35
E131A,34.5
K116A,8.08
S26W,1.92
V70I,21.5

# Block 4
# Target: Ras GTPase-activating protein-binding protein 1, RRM domain (G3BP1, Homo sapiens, UniProt Q13283)
# Chain of UniProt Q13283 (whole entry, looked up): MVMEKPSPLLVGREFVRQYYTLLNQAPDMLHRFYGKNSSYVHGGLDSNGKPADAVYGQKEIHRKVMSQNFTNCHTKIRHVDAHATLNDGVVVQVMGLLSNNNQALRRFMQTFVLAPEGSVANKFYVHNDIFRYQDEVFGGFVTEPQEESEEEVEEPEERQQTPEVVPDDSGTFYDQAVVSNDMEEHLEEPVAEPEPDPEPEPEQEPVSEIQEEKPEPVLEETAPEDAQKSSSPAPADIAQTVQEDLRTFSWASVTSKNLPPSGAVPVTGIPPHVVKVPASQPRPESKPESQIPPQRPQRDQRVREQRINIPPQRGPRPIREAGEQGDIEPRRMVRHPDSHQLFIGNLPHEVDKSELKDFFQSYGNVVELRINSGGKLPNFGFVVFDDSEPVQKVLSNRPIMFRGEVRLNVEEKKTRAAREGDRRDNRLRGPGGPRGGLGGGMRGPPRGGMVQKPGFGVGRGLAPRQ
# Technique: RNA Bind-n-Seq
# Form: RNA
# Sample: in vitro
# Tested at: 1 µM
# Notes: whole 134-nt RNA, ends assumed
# Together with: 150 mM KCl
# Relative to: input library
# Reading: higher = stronger binding
Sequence,log2 enrichment
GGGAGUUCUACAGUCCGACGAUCGUCCUGUGCUACACAUCGUAUGUACCGAAUCGGGAAAAAAAGGGUUUUUGGGUUUGGGAAAGUAUUAUGUUACGCCGUUCGGAUCUGCACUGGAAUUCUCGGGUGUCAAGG,0.0423
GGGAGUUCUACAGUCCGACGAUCCCUCAAGUCCUGUGCUACACAUCGUAUGUACCGAAUCGGGAAGGAAGGAAGGAAAGUAUUAUGUUACGCCGUUCGGAUCUGCACUUCCAGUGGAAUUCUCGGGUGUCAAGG,-0.128
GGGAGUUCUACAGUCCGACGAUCCCUCAAGUCCUGUGCUACACAUCGUAUGUACCGAAUCGGAAAGGUUUGGUGGAAAGUAUUAUGUUACGCCGUUCGGAUCUGCACUUCCAGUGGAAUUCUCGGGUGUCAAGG,-0.293
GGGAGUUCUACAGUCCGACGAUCUUCCCUGUACCGGCAGAGUUCACAAACACAUUUGAAGAGGCUUUUUCUCAGGAUUCUUAACCUUCCCAAAGGAAGUCCCAUGGAUGGGUUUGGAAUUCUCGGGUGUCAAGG,-0.213
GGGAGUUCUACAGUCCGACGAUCGCAGGAAGUAAAAACAAAUGGAAAUGCUUCGGAUAGUGGCAGGGGUGGGGAAAGCUAAGGAAAGGGUGGGAUGGGAGUGGGUAAAGAGUUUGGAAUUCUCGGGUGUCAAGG,1.07
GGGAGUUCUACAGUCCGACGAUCUAAGAAGGAAAUUGAGAGGAGAAAAACUGGAAAAGAAAUGUUGGAUUAUAAAAGAAAACAAGAAGAAGAAUUAACAAAAAGAAUGCUGGAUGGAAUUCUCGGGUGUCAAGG,0.0645
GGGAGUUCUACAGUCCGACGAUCUGGGAGGUGGAUUUUGUUUAUUUUUUUAGCUCAUUUCCAGGGGUGGGAAUUUUUUUUUAAUAUGUGUCAUGAAUAAAGUUGUUUUUGAUAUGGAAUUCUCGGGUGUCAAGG,1.16
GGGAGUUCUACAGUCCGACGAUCUGGCCCUGGUGGCAUGCGGGGAGGAAGAGGUGGCCUCAUGGAUCGUGGUGGUCCCGGUGGAAUGUUCAGAGGUGGCCGUAGUGGAGACAGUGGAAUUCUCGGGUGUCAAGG,1.8
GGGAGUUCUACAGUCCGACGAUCUCCUGUGCUACACAUCGUAUGUACCGAAUCGGGUUUUUUUGGGAAAGGGUUUUUUUGGGAAAGUAUUAUGUUACGCCGUUCGGAUCUGCAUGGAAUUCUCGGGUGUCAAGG,-0.0796

# A few entries again (block 4):
Sequence,log2 enrichment
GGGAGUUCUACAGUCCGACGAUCGUCCUGUGCUACACAUCGUAUGUACCGAAUCGGGAAAAAAAGGGUUUUUGGGUUUGGGAAAGUAUUAUGUUACGCCGUUCGGAUCUGCACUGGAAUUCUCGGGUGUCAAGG,0.0423
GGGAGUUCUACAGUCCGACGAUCCCUCAAGUCCUGUGCUACACAUCGUAUGUACCGAAUCGGGAAGGAAGGAAGGAAAGUAUUAUGUUACGCCGUUCGGAUCUGCACUUCCAGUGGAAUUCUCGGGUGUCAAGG,-0.128
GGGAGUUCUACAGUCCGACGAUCCCUCAAGUCCUGUGCUACACAUCGUAUGUACCGAAUCGGAAAGGUUUGGUGGAAAGUAUUAUGUUACGCCGUUCGGAUCUGCACUUCCAGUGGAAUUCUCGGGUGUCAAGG,-0.293
